Results gathered from unrelated publications.
Every numbered part comes from another study and shows a few of its results, in no order. Values after ≈ are worked out from the molar mass of the structure shown.
UniProt P10275, sequence (whole entry, looked up): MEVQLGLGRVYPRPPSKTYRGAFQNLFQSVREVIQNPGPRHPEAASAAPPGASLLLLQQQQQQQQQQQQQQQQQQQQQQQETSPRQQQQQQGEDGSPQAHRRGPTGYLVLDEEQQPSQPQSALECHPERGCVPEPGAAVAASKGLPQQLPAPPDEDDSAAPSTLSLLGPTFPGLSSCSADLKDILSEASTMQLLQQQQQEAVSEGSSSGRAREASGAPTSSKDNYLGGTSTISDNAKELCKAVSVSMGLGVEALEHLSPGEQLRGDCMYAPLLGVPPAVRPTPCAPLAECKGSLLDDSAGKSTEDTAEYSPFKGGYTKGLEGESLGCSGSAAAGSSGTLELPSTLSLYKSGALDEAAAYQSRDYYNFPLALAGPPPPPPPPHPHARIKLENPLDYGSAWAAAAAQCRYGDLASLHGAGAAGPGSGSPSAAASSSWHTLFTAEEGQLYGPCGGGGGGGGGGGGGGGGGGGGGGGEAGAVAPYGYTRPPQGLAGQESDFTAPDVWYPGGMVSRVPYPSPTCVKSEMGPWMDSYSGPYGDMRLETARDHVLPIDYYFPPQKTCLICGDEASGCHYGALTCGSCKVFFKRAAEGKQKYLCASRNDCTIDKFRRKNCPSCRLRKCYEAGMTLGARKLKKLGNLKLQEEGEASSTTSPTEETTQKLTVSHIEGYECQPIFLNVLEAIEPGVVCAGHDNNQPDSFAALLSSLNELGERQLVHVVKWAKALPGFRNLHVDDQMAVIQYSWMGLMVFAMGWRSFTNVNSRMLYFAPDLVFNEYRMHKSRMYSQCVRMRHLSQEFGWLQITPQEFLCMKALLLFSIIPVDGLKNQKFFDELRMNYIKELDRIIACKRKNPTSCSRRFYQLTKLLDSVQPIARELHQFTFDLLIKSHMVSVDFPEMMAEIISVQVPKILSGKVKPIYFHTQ
UniProt P51532, sequence (whole entry, looked up): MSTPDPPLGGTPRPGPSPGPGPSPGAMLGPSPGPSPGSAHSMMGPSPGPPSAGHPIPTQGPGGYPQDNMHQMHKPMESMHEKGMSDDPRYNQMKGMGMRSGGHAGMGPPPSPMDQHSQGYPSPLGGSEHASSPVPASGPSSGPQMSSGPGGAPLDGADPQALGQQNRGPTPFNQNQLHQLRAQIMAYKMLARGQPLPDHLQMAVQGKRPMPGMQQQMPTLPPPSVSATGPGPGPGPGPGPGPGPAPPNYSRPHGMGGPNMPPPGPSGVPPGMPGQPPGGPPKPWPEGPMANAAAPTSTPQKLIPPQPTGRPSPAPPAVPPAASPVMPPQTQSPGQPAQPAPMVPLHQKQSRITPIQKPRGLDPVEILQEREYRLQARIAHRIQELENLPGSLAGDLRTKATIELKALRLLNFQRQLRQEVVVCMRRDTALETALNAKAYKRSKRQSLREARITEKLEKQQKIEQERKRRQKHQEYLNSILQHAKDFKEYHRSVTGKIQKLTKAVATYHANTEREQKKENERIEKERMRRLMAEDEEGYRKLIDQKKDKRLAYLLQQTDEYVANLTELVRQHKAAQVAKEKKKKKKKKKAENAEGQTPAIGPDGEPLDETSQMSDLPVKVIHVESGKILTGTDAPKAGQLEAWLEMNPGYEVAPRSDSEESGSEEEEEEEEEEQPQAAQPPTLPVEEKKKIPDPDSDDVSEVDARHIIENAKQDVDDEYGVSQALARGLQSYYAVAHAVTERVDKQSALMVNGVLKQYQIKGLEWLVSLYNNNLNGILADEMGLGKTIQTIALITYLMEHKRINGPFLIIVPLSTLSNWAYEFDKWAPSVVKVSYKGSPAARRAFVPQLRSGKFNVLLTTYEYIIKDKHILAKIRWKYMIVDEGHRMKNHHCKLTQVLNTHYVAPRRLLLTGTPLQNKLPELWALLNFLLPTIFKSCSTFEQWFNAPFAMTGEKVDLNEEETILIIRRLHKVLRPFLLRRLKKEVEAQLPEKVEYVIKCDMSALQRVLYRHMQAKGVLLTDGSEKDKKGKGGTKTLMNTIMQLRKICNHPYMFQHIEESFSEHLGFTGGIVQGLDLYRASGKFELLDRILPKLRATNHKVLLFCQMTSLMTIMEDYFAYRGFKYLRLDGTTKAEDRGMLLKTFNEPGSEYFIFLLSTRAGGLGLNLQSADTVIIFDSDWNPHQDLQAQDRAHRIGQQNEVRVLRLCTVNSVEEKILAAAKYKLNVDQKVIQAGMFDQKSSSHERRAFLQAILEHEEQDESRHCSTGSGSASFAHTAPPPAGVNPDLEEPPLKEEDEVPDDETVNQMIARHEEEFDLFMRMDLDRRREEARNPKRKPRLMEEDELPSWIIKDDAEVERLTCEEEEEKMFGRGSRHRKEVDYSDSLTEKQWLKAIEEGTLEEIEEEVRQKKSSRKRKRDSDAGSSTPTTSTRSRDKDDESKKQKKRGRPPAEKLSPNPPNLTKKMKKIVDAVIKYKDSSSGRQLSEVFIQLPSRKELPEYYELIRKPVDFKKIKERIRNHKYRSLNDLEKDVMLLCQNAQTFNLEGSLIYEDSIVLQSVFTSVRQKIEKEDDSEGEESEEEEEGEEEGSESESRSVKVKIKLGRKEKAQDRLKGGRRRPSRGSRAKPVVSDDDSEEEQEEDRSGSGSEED
UniProt Q06124, sequence (whole entry, looked up): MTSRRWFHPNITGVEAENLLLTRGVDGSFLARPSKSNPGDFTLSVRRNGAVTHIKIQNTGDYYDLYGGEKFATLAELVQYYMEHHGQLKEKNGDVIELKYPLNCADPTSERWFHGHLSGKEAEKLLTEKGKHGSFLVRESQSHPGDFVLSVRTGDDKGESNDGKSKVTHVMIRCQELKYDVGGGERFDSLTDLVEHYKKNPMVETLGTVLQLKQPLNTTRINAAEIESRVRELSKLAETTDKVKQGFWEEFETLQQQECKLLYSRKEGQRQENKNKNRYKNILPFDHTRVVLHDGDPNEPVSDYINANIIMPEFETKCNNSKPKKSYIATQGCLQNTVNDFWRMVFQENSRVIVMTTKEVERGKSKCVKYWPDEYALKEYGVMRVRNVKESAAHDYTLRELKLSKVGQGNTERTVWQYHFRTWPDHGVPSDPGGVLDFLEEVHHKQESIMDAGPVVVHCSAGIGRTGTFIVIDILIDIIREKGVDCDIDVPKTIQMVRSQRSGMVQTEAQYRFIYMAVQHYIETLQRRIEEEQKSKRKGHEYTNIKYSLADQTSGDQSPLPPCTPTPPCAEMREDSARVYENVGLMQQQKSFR

Sample 1
Target: Phosphatidylinositol 3,4,5-trisphosphate 5-phosphatase 1, Ptase-C2 domains (INPP5D, Homo sapiens, UniProt Q92835)
Effect on: enzyme activity
Added: PtdIns(3,4,5)P3-diC8
Reference: SHIP1 over SHIP2
Construct (Q92835 395-898): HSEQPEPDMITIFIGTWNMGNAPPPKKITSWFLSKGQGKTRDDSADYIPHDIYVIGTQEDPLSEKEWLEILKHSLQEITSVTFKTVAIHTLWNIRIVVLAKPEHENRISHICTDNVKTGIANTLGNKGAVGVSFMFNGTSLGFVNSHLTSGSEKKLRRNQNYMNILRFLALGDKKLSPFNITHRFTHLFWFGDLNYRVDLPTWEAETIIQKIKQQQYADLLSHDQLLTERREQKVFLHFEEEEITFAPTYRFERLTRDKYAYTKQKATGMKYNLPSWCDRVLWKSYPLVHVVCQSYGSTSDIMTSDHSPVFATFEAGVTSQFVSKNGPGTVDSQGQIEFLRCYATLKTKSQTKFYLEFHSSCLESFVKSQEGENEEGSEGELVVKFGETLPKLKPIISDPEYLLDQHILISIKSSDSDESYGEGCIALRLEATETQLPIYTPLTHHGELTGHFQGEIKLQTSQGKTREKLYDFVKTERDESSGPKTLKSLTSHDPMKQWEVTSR
`CC[C@H]1CC[C@H]2[C@@H]3C[C@@H](O)[C@@]4(O)C[C@H](N)CC[C@]4(C)[C@H]3CC[C@]12C` has a selectivity ratio of 1.2.
The selectivity ratio of `Cc1oc(-c2ccccc2Cl)nc1Cn1cccc1C1=N[C@@H](c2ccccc2)CO1` is reported as 18.5.
`C=CC(=O)c1nc(C#N)ccc1N1CCCOCC1` gave a selectivity ratio of > 7.
`CSc1ccc2c(c1)c(CCN)c(C)n2Cc1ccc(Cl)cc1` has a selectivity ratio of > 3.
`N#Cc1nccc(N2CCNCC2)n1` gave a selectivity ratio of 4.3.
The selectivity ratio of `O=C(NCc1c(F)cccc1F)c1sccc1OCc1ccc(Cl)cc1Cl` is reported as > 24.
`Cc1cc(N2CCNCC2)nc(C#N)n1` gave a selectivity ratio of 1.8.

Single results of other studies
The IC50 of `CC1(N)CCN(c2ncc(-c3cccc(Cl)c3Cl)c(N)n2)CC1` is reported as 0.25 µM (PTPN11 (Homo sapiens, UniProt Q06124); phosphatase activity).
`CC[C@H](C)[C@H](NC(=O)[C@H](CO)NC(=O)[C@H](Cc1ccc(O)cc1)NC(=O)[C@H](CC(=O)O)NC(=O)[C@H](CO)NC(=O)[C@@H](NC(=O)[C@H](Cc1ccccc1)NC(=O)[C@@H](NC(=O)CNC(=O)[C@H](CCC(=O)O)NC(=O)[C@H](C)NC(=O)[C@@H](N)Cc1ccc(O)cc1)[C@@H](C)O)[C@@H](C)CC)C(=O)N[C@@H](C)C(=O)N[C@@H](CCSC)C(=O)N[C@@H](CC(=O)O)C(=O)N[C@@H](CCCCN)C(=O)N[C@H](C(=O)N[C@@H](Cc1c[nH]cn1)C(=O)N[C@@H](CCC(N)=O)C(=O)N[C@@H](CCC(N)=O)C(=O)N[C@@H](CC(=O)O)C(=O)N[C@@H](Cc1ccccc1)C(=O)N[C@H](C(=O)N[C@@H](CC(N)=O)C(=O)N[C@@H](Cc1c[nH]c2ccccc12)C(=O)N[C@@H](CC(C)C)C(=O)N[C@@H](CC(C)C)C(=O)N[C@@H](C)C(=O)N[C@@H](CCC(N)=O)C(=O)N[C@@H](CCCCN)C(=O)NCC(=O)N[C@@H](CCCCN)C(=O)N[C@@H](CCCCN)C(=O)N[C@@H](CC(N)=O)C(=O)N[C@@H](CC(=O)O)C(=O)N[C@@H](Cc1c[nH]c2ccccc12)C(=O)N[C@@H](CCCCN)C(=O)N[C@@H](Cc1c[nH]cn1)C(=O)N[C@@H](CC(N)=O)C(=O)N[C@H](C(=O)N[C@H](C(=O)N[C@@H](CCC(N)=O)C(=O)O)[C@@H](C)O)[C@@H](C)CC)C(C)C)[C@@H](C)CC` gave a half-life of 35 to 45 min (human plasma; 1 µM, pH 7.4, 37 °C, 80% pooled plasma).
The remaining protein of `Nc1nnc(-c2ccccc2O)cc1N1CC2CCC(C1)N2c1ccnc(C#CCCN2CCCCCC2)c1` is reported as 91.6% (SMARCA4 (Homo sapiens, UniProt P51532); degrader, immunoblot; SW1573; concentration not given, 5 min; reference: DMSO).
With `N=C(N)Nc1nc2ccc(Cl)cc2[nH]1` the CC50 was > 100 µM (THP-1-derived macrophages; 72 h, max 1% DMSO).
`O=C(O)c1ccc(Cn2c(=O)n(Cc3ccc(C(=O)NCC4COC4)cc3)c(=O)c3ccccc32)cc1` has a solubility of 98.1 µM (≈ 49 µg/mL) (aqueous buffer; pH 7.4, 23 °C).
The CC50 of `CC1(C)NC(N)=Nc2nc3ccc(C(F)(F)F)cc3n21` is reported as > 100 µM (THP-1-derived macrophages; 72 h, max 1% DMSO).
`O=C(N/N=C/c1cccc(O)c1O)c1cc2ccccc2cc1O` has an IC50 of 50 to 100 µM (Androgen receptor (AR, Homo sapiens, UniProt P10275); inhibitor).
